Measurements of several laboratories.
Each line is one published result; not all experiments were run side by side. Numbers after ± are the reported error.

SMILES | test | system | conditions | quantity | value
COc1cc2c(Oc3ccc4[nH]c(C)cc4c3F)ccnc2cc1OCC1(N)CC1 |  | paediatric recurrent refractory sarcoma | 10 mg | grade 3 Neutropenia | 0%
CCN1CCN(Cc2ccc(Nc3ncc(F)c(-c4cc(F)c5nc6n(c5c4)[C@H](C)CCC6)n3)nc2)CC1 |  | advanced solid tumour patients | dose not given, Phase Ia monotherapy | Hypertriglyceridemia incidence, any grade | 70.8%
CN1CC[C@@H](c2c(O)cc(O)c3c(=O)cc(-c4ccc(C(F)(F)F)cc4Cl)oc23)[C@@H]1CO | refers to: Vomiting | AML | oral, 200 mg, intermittent dosing | patients with adverse event | 10%
O=S(=O)(Nc1ccccc1)c1ccc(NC(=S)Nc2ccccc2)cc1 | refers to: Bu | female mouse, blood | oral, 5 mg/kg daily, 14 days | blood chemistry level | 0.1 mg/dL
CC[C@H](C)[C@H](NC(=O)[C@H](CC(N)=O)NC(=O)[C@H](CCC(=O)O)NC(=O)[C@H](C)NC(=O)[C@H](Cc1c[nH]cn1)NC(=O)[C@@H](NC(=O)[C@@H]1CCCN1C(=O)[C@H](CO)NC(=O)[C@@H]1CCCN1C(=O)[C@@H](NC(=O)[C@H](Cc1ccc(O)cc1)NC(=O)[C@@H](NC(=O)[C@H](CCCNC(=N)N)NC(=O)[C@H](CO)NC(=O)[C@@H](NC(=O)[C@H](Cc1c[nH]cn1)NC(C)=O)[C@@H](C)O)[C@@H](C)CC)[C@@H](C)CC)[C@@H](C)CC)C(N)=O | circular dichroism | water with 5% DMSO | 500 µM, 18 °C | alpha-helix content | 2%
COc1ncnn2ccc(-c3cnc4nc(C)n(Cc5nnc([C@@H](C)F)o5)c4c3)c12 |  | human | oral, dose not given, grade 2 | patients with amylase increased | 7.1%
C[C@@H]1NC(=O)[C@H](CCCCNC(=O)CO/N=C/C(=O)NCCCC[C@@H]2NC(=O)[C@@H](Cc3ccccc3)NC(=O)[C@H](CC(=O)O)NC(=O)CNC(=O)[C@H](CCCNC(=N)N)NC2=O)NC(=O)CNC(=O)[C@@H]2CCCN2C(=O)[C@H](CCCCNC(=O)CO/N=C/C(=O)NCCCC[C@@H]2NC(=O)[C@@H](Cc3ccccc3)NC(=O)[C@H](CC(=O)O)NC(=O)CNC(=O)[C@H](CCCNC(=N)N)NC2=O)NC(=O)[C@H](CCCCNC(=O)CCNC(=O)CCNC(=O)CCNC(=O)[C@H](CCCCN)NC(=O)[C@H](Cc2ccccc2)NC(=O)CNC(=O)CN2CCCNCCNCCCNCC2)NC(=O)[C@H](CCCCNC(=O)CO/N=C/C(=O)NCCCC[C@@H]2NC(=O)[C@@H](Cc3ccccc3)NC(=O)[C@H](CC(=O)O)NC(=O)CNC(=O)[C@H](CCCNC(=N)N)NC2=O)NC(=O)CNC(=O)[C@@H]2CCCN2C(=O)[C@H](CCCCNC(=O)CO/N=C/C(=O)NCCCC[C@@H]2NC(=O)[C@@H](Cc3ccccc3)NC(=O)[C@H](CC(=O)O)NC(=O)CNC(=O)[C@H](CCCNC(=N)N)NC2=O)NC1=O [copper-64 labelled] |  | normal mice, lung | intravenous, 0.74 MBq, 3 h post-injection | tissue uptake | 9.44 ± 1.54 %ID/g
CO[C@H]1C[C@@H]2CC[C@@H](C)[C@@](O)(O2)C(=O)C(=O)N2CCCC[C@H]2C(=O)O[C@H]([C@H](C)C[C@@H]2CC[C@@H](OC(=O)NCCOCCOCCOCCOCCOCCOCCOCCOCCC(=O)N3CCc4cc(Cn5nc(-c6ccc7oc(N)nc7c6)c6c(N)ncnc65)ccc4C3)[C@H](OC)C2)C[C@@H](O)[C@H](C)/C=C(\C)[C@@H](O)[C@@H](OC)C(=O)[C@H](C)C[C@H](C)/C=C/C=C/C=C/1C |  | patients with advanced solid tumours | intravenous, dose not given, grade ≥3 | incidence of Vomiting TRAE | 1.8%
O=C(c1ccc(F)c(F)c1Nc1ccc(I)cc1F)N1CC(O)([C@@H]2CCCCN2)C1 |  | human patients | oral, 1 mg/kg, dose expansion | treatment-related adverse events | 92%
COc1ncccc1-c1cnn2ccc(N3CCN(C(=O)OC(C)C)CC3)nc12 |  | rat, CCI mechanical allodynia model, brain | oral, 1 mg/kg, 240 min | drug concentration | 470 nM

Some of these lines once more:
SMILES | test | system | conditions | quantity | value
CC[C@H](C)[C@H](NC(=O)[C@H](CC(N)=O)NC(=O)[C@H](CCC(=O)O)NC(=O)[C@H](C)NC(=O)[C@H](Cc1c[nH]cn1)NC(=O)[C@@H](NC(=O)[C@@H]1CCCN1C(=O)[C@H](CO)NC(=O)[C@@H]1CCCN1C(=O)[C@@H](NC(=O)[C@H](Cc1ccc(O)cc1)NC(=O)[C@@H](NC(=O)[C@H](CCCNC(=N)N)NC(=O)[C@H](CO)NC(=O)[C@@H](NC(=O)[C@H](Cc1c[nH]cn1)NC(C)=O)[C@@H](C)O)[C@@H](C)CC)[C@@H](C)CC)[C@@H](C)CC)C(N)=O | circular dichroism | water with 5% DMSO | 500 µM, 18 °C | alpha-helix content | 2%
